{"data": "Assay results collected from several papers", "note": "Each numbered part is a random draw from the data of one study; scales do not carry over between parts.", "chain of UniProt P78368 (whole entry, looked up)": "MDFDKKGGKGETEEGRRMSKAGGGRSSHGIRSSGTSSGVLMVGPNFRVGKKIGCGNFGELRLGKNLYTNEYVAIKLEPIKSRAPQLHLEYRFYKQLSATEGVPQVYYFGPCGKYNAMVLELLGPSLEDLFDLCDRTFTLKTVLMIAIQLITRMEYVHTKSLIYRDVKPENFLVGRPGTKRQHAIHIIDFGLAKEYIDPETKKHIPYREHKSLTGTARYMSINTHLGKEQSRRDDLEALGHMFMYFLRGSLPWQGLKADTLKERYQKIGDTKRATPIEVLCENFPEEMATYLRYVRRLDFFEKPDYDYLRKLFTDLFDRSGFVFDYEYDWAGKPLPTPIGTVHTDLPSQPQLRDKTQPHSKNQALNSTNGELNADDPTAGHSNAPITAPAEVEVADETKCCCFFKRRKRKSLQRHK", "chain of UniProt Q9Y4B6 (whole entry, unmodified, looked up)": "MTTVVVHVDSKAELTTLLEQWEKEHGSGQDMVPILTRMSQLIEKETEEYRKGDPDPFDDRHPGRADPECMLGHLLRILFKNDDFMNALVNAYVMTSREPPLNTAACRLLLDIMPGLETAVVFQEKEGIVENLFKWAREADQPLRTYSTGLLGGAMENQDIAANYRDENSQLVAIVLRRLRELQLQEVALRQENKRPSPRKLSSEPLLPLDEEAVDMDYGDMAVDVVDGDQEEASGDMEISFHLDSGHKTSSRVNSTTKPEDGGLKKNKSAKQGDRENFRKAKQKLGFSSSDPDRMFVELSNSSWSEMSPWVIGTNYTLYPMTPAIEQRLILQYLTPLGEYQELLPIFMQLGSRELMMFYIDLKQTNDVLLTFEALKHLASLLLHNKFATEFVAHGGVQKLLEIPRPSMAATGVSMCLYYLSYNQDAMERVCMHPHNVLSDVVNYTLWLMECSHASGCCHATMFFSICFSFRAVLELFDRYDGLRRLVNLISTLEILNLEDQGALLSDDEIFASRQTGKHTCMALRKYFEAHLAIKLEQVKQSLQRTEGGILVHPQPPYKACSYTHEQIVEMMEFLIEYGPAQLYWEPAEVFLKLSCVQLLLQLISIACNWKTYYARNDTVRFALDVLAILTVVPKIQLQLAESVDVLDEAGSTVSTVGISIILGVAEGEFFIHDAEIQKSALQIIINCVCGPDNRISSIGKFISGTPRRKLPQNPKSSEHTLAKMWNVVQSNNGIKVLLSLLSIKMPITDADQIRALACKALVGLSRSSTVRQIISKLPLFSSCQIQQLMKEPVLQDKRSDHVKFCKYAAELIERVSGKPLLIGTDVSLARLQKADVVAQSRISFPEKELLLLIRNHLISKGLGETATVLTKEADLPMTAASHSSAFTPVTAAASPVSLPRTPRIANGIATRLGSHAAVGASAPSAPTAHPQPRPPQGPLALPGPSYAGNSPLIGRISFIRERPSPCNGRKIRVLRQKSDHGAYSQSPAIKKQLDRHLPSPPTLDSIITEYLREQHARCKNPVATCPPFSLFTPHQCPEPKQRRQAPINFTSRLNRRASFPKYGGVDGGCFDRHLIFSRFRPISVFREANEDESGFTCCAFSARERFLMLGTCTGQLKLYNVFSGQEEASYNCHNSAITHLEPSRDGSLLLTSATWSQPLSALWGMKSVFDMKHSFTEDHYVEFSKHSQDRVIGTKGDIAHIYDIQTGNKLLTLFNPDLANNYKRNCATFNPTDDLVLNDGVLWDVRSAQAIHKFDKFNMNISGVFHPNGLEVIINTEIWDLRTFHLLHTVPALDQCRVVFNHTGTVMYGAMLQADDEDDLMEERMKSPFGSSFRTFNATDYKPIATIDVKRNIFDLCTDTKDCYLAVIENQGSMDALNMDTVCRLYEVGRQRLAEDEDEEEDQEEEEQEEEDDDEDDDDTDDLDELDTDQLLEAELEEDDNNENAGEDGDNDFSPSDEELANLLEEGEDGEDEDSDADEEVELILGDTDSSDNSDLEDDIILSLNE", "chain of UniProt Q9H2K8 (whole entry, looked up)": "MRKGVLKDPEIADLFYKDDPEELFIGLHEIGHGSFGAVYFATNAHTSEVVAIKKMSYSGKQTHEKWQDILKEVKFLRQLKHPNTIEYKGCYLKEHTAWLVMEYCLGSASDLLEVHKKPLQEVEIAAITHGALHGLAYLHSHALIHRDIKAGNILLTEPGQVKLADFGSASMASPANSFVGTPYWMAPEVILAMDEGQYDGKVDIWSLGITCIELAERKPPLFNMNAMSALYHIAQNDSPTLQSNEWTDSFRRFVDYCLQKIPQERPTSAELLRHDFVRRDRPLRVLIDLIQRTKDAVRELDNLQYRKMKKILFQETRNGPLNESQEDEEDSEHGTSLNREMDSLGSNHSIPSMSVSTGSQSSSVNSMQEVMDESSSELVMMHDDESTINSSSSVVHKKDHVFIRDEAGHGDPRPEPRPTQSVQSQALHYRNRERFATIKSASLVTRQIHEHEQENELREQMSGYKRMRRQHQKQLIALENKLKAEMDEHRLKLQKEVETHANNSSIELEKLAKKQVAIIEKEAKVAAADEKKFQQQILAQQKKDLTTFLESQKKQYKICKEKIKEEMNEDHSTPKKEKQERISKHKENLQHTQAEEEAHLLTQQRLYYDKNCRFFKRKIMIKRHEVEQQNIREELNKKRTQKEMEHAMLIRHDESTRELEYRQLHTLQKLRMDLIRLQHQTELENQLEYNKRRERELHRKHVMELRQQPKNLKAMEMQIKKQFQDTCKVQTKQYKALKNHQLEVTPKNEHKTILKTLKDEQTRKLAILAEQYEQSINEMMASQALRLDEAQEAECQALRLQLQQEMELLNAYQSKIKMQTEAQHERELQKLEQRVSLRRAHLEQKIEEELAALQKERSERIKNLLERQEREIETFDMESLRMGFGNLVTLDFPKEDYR", "chain of UniProt P49841 (whole entry, looked up)": "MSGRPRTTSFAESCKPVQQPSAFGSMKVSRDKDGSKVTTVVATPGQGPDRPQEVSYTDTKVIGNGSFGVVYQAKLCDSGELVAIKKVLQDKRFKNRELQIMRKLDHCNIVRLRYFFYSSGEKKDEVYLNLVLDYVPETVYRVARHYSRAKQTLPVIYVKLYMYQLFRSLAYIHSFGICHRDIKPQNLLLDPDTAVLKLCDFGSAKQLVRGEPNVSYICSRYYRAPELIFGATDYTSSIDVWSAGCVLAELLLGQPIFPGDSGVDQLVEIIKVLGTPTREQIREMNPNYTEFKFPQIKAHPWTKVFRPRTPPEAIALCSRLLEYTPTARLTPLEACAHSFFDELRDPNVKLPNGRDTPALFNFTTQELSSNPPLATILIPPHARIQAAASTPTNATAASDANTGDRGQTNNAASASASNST", "chain of UniProt Q9Y6M4 (whole entry, looked up)": "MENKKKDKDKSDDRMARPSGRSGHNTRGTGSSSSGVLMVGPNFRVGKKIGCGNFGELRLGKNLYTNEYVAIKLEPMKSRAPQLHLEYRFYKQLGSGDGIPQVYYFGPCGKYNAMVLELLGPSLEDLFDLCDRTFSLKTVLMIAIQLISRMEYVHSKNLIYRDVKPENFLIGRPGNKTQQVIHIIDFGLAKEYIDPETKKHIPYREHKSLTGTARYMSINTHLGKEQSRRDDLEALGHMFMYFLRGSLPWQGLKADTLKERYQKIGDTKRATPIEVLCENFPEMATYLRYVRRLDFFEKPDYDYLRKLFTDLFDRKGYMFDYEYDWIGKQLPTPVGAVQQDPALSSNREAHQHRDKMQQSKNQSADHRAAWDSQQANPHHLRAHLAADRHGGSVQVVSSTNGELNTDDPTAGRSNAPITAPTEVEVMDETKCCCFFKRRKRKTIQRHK", "chain of UniProt P27361 (whole entry, looked up)": "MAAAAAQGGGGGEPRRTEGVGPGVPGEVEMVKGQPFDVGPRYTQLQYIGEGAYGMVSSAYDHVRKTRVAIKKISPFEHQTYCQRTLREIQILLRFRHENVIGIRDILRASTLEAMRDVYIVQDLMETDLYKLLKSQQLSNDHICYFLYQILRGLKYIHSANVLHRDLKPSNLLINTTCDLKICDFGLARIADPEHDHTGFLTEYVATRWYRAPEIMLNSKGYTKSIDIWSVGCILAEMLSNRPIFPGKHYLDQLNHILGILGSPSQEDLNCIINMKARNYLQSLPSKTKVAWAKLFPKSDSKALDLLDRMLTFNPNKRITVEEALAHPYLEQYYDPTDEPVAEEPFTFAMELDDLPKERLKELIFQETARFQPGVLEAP"}
{"data": "Block 1", "SMILES": "Cn1nc2c3c(cccc31)C(=O)c1ccccc1-2", "observed": "enzyme activity", "mode": "inhibitor", "concentration": "0.5 µM", "relative to": "control"}
{"target": "LCK (Homo sapiens, UniProt P06239)", "remaining activity [%]": 99.2}
{"target": "GSK3B (Homo sapiens, UniProt P49841)", "remaining activity [%]": 94}
{"target": "RPS6KA2 (Homo sapiens, UniProt Q15349)", "remaining activity [%]": 93.5}
{"target": "TAOK2 (Homo sapiens, UniProt Q9UL54)", "remaining activity [%]": 104}
{"target": "JAK3 (Homo sapiens, UniProt P52333)", "remaining activity [%]": 107}
{"target": "MST1R (Homo sapiens, UniProt Q04912)", "remaining activity [%]": 96.7}
{"target": "MAPKAPK2 (Homo sapiens, UniProt P49137)", "remaining activity [%]": 102}
{"target": "MAPK3 (Homo sapiens, UniProt P27361)", "remaining activity [%]": 98.9}
{"target": "FGFR1 (Homo sapiens, UniProt P11362)", "remaining activity [%]": 99.5}
{"target": "TBK1 (Homo sapiens, UniProt Q9UHD2)", "remaining activity [%]": 88.8}
{"target": "CSNK1G3 (Homo sapiens, UniProt Q9Y6M4)", "remaining activity [%]": 81.4}
{"target": "CSNK1G2 (Homo sapiens, UniProt P78368)", "remaining activity [%]": 91.5}
{"target": "FRK (Homo sapiens, UniProt P42685)", "remaining activity [%]": 94.3}
{"target": "MAP2K2 (Homo sapiens, UniProt P36507)", "remaining activity [%]": 102}
{"data": "Block 2", "Compound": "C=CCc1ccc(O)c(-c2cc(CC=C)ccc2O)c1", "observed": "chloride current", "ANO1": "Anoctamin-1 (ANO1, Homo sapiens, UniProt Q5XXA6)", "chain of UniProt Q5XXA6 (whole entry, unmodified, looked up)": "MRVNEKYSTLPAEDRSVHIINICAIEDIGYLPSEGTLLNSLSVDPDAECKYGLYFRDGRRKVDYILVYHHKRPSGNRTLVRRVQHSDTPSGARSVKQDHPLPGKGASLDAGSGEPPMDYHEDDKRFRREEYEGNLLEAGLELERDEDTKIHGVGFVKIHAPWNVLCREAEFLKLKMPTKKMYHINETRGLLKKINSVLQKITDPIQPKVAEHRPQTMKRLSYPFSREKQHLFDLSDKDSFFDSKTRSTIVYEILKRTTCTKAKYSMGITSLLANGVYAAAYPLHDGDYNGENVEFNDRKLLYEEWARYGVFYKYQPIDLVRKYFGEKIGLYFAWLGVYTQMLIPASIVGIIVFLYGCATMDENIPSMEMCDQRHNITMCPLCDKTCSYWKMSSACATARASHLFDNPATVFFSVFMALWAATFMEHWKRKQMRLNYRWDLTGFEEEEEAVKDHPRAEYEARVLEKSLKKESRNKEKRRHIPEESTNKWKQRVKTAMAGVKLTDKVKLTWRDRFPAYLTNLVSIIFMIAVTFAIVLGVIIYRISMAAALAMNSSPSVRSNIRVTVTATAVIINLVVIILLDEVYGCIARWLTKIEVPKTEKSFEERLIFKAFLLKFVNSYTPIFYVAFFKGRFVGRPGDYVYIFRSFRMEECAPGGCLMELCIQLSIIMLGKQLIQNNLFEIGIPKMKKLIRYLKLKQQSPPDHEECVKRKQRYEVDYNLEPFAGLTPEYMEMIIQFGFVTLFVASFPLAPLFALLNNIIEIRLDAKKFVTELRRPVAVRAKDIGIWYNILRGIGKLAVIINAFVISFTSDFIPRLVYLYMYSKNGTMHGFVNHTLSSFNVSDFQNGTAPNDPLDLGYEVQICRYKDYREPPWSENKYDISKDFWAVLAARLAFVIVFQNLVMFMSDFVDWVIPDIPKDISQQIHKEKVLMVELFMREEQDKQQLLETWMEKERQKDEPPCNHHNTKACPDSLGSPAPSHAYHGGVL"}
{"target": "Anoctamin-1 (ANO1, Homo sapiens, UniProt Q5XXA6, del476-501/E649A)", "test": "inhibitor, whole-cell voltage clamp", "conditions": "10 µM, E623A mutant", "normalized current": 0.93}
{"target": "ANO1", "test": "inside-out patch clamp", "conditions": "30 µM, membrane voltage 120 mV", "normalized current": 1}
{"target": "ANO1", "test": "inside-out patch clamp", "conditions": "30 µM, membrane voltage 0 mV", "normalized current": -0.0005}
{"target": "Anoctamin-1 (ANO1, Homo sapiens, UniProt Q5XXA6, del476-501/E659A/K629A)", "test": "inside-out patch clamp", "conditions": "30 µM, membrane voltage -60 mV", "normalized current": -0.383}
{"target": "Anoctamin-1 (ANO1, Homo sapiens, UniProt Q5XXA6, del476-501/K629A)", "test": "inside-out patch clamp", "conditions": "30 µM, membrane voltage 120 mV", "normalized current": 1}
{"data": "Block 3", "Compound": "O=C(N[C@H]1CCCCC/C=C\\C2C[C@@]2(C(=O)O)NC(=O)[C@@H]2C[C@@H](Oc3ccncc3)CN2C1=O)OC1CCCC1 (stereo partly shown)", "method": "competition with immobilised ligand", "concentration": "1 µM"}
{"target": "FLT3 (Homo sapiens, UniProt P36888, K663Q)", "test": "binding", "remaining binding": "85%"}
{"target": "EPHB2 (Homo sapiens, UniProt P29323)", "test": "cell-free assay", "remaining binding": "91%"}
{"target": "SNRK (Homo sapiens, UniProt Q9NRH2)", "test": "binding", "remaining binding": "97%"}
{"target": "EGFR (Homo sapiens, UniProt P00533, del747-752/P753S)", "test": "cell-free assay", "remaining binding": "85%"}
{"target": "CSNK1G2 (Homo sapiens, UniProt P78368)", "test": "binding", "remaining binding": "63%"}
{"target": "TAOK3 (Homo sapiens, UniProt Q9H2K8)", "test": "binding", "remaining binding": "100%"}
{"target": "NIM1K (Homo sapiens, UniProt Q8IY84)", "test": "binding", "remaining binding": "82%"}
{"data": "Block 4", "organism": "Sarcocystis neurona", "observed": "parasite growth", "concentration": "10 µM", "time": "96 h", "setting": "secondary screen"}
{"SMILES": "CC(=O)[C@H]1CC[C@H]2[C@@H]3C[C@H](C)C4=CC(=O)CC[C@]4(C)[C@H]3[C@@H](O)C[C@]12C", "inhibition": "-2.7%"}
{"SMILES": "CC(=O)Nc1nnc(S(N)(=O)=O)s1", "inhibition": "-15.1%"}
{"SMILES": "Nc1nc(F)nc2c1ncn2[C@@H]1O[C@H](CO)[C@@H](O)[C@@H]1O", "inhibition": "-19.7%"}
{"SMILES": "CC(=O)Nc1ccc(CC(=O)O)cc1", "inhibition": "-22.7%"}
{"SMILES": "O=C(c1ccc(OCCN2CCCCC2)cc1)c1c(-c2ccc(O)cc2)sc2cc(O)ccc12", "inhibition": "-25.7%"}
{"SMILES": "C[C@@H]1C[C@H]2[C@@H]3CCC4=CC(=O)C=C[C@]4(C)[C@@]3(F)[C@@H](O)C[C@]2(C)[C@@]1(O)C(=O)CO", "inhibition": "-20.4%"}
{"SMILES": "OCc1cccnc1", "inhibition": "-33%"}
{"data": "Single results of other studies"}
{"SMILES": "C[C@@H]1CN(c2ccc(-c3cc(C(=O)NCCOCCOCCOCCOCCOCCOCCOCCOCCOCCNC(=O)/C=C/c4[nH]cc(C(=O)N[C@@H](CC(N)=O)c5ccc(F)c(Cl)c5)c4-c4ccc(Cl)cc4F)ccc3F)cc2NC(=O)c2c[nH]c(=O)cc2C(F)(F)F)C[C@H](C)N1C", "target": "DDB1- and CUL4-associated factor 1 (DCAF1, Homo sapiens, UniProt Q9Y4B6)", "test": "thermal stability, DSF", "conditions": "5.5 µM", "quantity": "ΔTm", "result": "5.3 °C"}
